Experimental data of several laboratories.
Parts stem from different laboratories: compare values within a part only.
UniProt Q15326, sequence (whole entry, looked up): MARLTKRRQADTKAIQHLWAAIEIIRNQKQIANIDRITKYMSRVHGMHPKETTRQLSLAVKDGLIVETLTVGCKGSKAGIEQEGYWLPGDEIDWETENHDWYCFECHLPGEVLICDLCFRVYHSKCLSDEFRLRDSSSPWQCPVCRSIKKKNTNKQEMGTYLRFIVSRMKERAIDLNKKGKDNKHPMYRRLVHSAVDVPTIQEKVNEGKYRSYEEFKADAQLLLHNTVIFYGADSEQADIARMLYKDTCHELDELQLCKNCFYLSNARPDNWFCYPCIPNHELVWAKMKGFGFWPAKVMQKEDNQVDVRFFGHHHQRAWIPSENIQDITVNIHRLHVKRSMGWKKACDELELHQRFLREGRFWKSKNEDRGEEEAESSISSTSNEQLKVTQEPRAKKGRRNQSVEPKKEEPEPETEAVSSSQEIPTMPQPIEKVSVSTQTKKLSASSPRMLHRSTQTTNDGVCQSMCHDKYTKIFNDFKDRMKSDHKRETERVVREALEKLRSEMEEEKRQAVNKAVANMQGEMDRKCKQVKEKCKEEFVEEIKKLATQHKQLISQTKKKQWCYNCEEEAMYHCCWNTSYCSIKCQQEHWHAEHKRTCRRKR

Sample 1 — method: RNA Bind-n-Seq; form: RNA; sample: in vitro; concentration: 365 nM; reference: no-protein control; reading: higher = stronger binding
Target: RNA binding protein fox-1 homolog 2, RRM domain, GST-SBP tag (RBFOX2, Homo sapiens, UniProt O43251-10, residues 100-194)
Notes: natural RNA segment, single round, ends assumed
All sequences stand within: GGGAGUUCUACAGUCCGACGAUC … UGGAAUUCUCGGGUGCCAA
Residues (chain): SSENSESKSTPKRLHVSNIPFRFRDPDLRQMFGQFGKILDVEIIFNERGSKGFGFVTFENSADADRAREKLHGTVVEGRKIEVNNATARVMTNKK
Strand | RBNS enrichment (R)
CCCAAAAUUGUGAUUAUUAAAAAUAUAGUUAAUUGUGAUUAGCCUCCAGUGAAAAUAGGUUGAAAGCCUGUUUUGAUCCAGUGUUUUCUCCCAAAGAACUCUACGUUAAA | 0.83
GGGUGGGUUGGUGUCUCUUAUCGCUCCACUGGGGUUCCUCUCUGGAUACAGGAGGUGGCUUCUUCAGGUUCCAUAUCCCCAAUGGUGUGAAUCACAGCUAAGAUCACCUC | 0.317
UCUCCUAAUAUGCUGUUUCCAUUAUGACACAGCAGCUCCUUUGUAAGUACCAGGUCAUGUCCAUCCCUUGGUACAUAUAUGCAUUUGCUUUUAAACCAUUUCUUUUGUUU | 1.82
UCUACAGCAGAACUUUGAUGAAGAUGAAGGGAUUUUUUUGUACCUCACACUCACACCAGUGCAUUACACUAACCUUGUUCACUGGAUUGUCUGGGGUGACUUGGGCUCAU | 0.398
CUCUGCCUUGACCUGAGGAAGACCAUGCUAACUGGUGUUAUUUUGUAUGUACCCUGUGCUUAAUUCUAUAACAGUAAACCCCAUACGCAGGUGGGAGGGAGGAACACCGG | 1.2
AAGGAAGAAGAUAUCAGUAGAAAAGGAAAUUGCAACCCUCAGCUCUGCAAACUCAGUCUCAUGCUCCUGGAAUACCUUCAAUAGCUGCCUUCCUCACCGCAGAUGUUUCU | 0.469
AAUUCAUGGUUCAAGUAUUAAGCAGUUCAUUCUACCAAGCUGUCACAGGUUUUCAGAGAAUUAUCUCAAGUAAAACAAAUGAAAUUUAAUUACAAACAAUAAGAACAAGU | 0.402
UUUGAAAGAAAUUUUCAGAUGUUCUGUUCCCUAUAGAGGGCCUAUUCCAGGAUCUAAAUGAAUGGGAAUUUAUAAUUCCUUUCAUAGACUCAAACCUGAAAGCAGAAAUU | 0.235
AAUCUAUCUAUAGACUGUAGUAAGAUGCAAUGUGGCUCUUUUCUUUUAGGUUGUGUGCAGUUGAUAUUUAACAUUGAUUUAUUUUUGAUCAUUUAAGUAAUAGUUAGUAA | 1.74
UCUGGGACUCAGUCAGAGCGCUUUGGCUGAAUGAGGGGUGGAACCGAGGGAAGAAGGUGCGUCGGAGUGGCAGAUGCAGGAAAUGAGCUGUCUAUUAGCCUUGCCUGCCC | 0.658
AAAAAUUAUCAAAAAGCUGAUGUGCAGGGAUAUUGCCUUAUUUGUCUGUAAAAAUGUAGCUCAGUAACAUAACUGCUUCUUGGAGCUUUGGAAUAUUUUAUCCUGUAUUC | 0.498
GACUACUCAAGCUCUGUUUACAGAAGAAAAUUGAAUGGCGAGGGUGUGGCCAUAUGAACUGACUAGAUGGCUAAUAUGGACACUUUGGGUAUUUCUAAUGCCUGUUCAGG | 0.337

Sample 2 — Strand: GGCCTGCGCAGGCC (dsDNA); method: EMSA; form: double-stranded DNA, one strand shown
target | binding
ZMYND11 1-95 (Homo sapiens, UniProt Q15326) | no binding
KAT6A 85-181 (Homo sapiens, UniProt Q92794) | no binding
KAT6A 1-85 (Homo sapiens, UniProt Q92794) | binds

Sample 3 — method: EMSA with sequencing; form: double-stranded DNA, one strand shown; sample: in vitro; concentration: 10 and 20 nM; reference: negative control set to 0; reading: higher = stronger binding
Target: Hepatocyte nuclear factor 3-alpha (Foxa1, Mus musculus, UniProt P35582, residues 1-468, full length assumed)
Notes: whole designed probe, mean of two concentrations, ends assumed
All sequences stand within: GTGAGCGGTGCCCATTGATGGGGAAC … TTTCACTGGGATCGTGGGGAC
Residues (chain): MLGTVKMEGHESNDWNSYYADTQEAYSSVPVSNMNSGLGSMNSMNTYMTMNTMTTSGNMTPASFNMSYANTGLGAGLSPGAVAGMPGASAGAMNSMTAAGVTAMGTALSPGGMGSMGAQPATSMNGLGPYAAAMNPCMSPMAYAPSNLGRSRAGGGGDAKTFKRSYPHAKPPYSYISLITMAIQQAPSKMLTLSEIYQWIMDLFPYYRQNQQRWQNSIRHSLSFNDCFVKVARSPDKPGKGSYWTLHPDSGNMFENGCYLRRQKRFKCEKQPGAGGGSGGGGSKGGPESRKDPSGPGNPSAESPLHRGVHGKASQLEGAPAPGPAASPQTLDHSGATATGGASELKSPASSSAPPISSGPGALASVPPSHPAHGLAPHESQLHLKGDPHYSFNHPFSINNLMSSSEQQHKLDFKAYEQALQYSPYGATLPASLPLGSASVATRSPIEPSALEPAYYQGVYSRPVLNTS
Strand | normalised bound fraction [ratio]
ACACCCTTGACCTCTTCATATTGACATCATACGGTACTATATCCTCACAAAATGATTTCCAGTGCTTAATTTAGGTTGTAGCTGCTTTCTTAAGCAAACAGGAAGAAAAACAGCTAGGGTAGTAATTGGAGTGTCTGTCTTTGAGTTTCCAGTTGTTATGGGATATTTATCTCAAAGGCCAGATGCATCTGAC | 0.218
CTCATCTTAGATAGTAGAATCGCAGCATTTTTTTCTGCCGGTCTGAACTCAGGCACGCTATTTGTTCATCTACTTACTCAAACATGTATTGTGTGTTTACTCAGTGGCAGGCTCAGTGCTAGGTGCTGGGGATGGAGCAGTGCAGAGAGACAAAAACTCTGCTCTCATAAAGCTCACAATCTACAACCTGAGA | 0.481
TCTGCTGCAGGGCTTGCAGGAACAAATGTTTACAGCCCCTAGGCGGCAGGGGGAGCATCTCCCCTCTGAGTTATGAGCTTTAGAGGCTCCTGTGTAAATATTTACCTCTCTAGAGCATTGGTGACCGTGGGAGATCGGGATCTGTAAGCACTGAGGTTTTCTGTTTGCGTCATCGTGGCCAGGGTGGGGTGGG | 0.404
GGCGGAAGTGGAAAGAAATTGAGGGATCTGAATTTGTTGTTTACTAGGAGGTGTGGGTCCAACTTCCAACCTTGTCCCCAGACCTTTTCCAGGAGATTGCTTAGGAAGCACTGCCATCTTGTGGCTTACTATAGTTATTGCAGACAGAAGGAAAATCTACCAAAGCCCCCATGACAATACCAATGAGCAATGA | -0.00589
TTTCCACCTAAAATATTGTCATTCAGAAGGGAATCACTTTAATATCCACAAAGGAAAATTAACATGTTATAATTTCAGCCACAATAATATCTATGTAAACATGCATTTAATCCTACTAATTTACAATTAATTCAATTTTTCTTTTATATTCTGCATTCCACATAAAGCGATAACAGGAAAACATAAAATTCCA | 0.272
TGATACAGAATTTCTCAGTATAATTACCTCCAGCCAGGTTGCTTTTTTAGCTCAAAAGAAAGATAAAAGGCGGAGTCCTGTAAATAAAGGGAATGTAATCTTGGAGACTGAACCAAAGGCAAGTTACGGGGAGATAAGAATACCTGAAGAGAATTCGATTCAGCTTGATGGTTTTACAGAAGCATATGAAAGT | 0.0333
TAAAGTTTTGATTTTTAAAATGATTCCAATGCTTCTGACATAAAAAAATCTGTTGCTGAAATACTTGAATACTATAATATATTAAATGATCTAAGTAAACATAGGACTACAGAAAAAAGAATATGAGAAAAGGATCAAAAGGAAGTAACTGATAAAAGTCAAGGAGAAATCAAAATTTAAATAAAAGAAATGG | 0.481
CAGTTTTATTTCACAGCTTAATGTAAATAAAAATTCCGTGTTTTGACTCATGTCAGATAAGAAACAGAGCAATTTTTTTCTGTTGATTTTCTAAGTAAACATATATTTTCTGTCTTAAAAGCTGTCAAGATGAACTTAACATCAAATTGCTTAGATATTGTATTTCCTAACATCAATCCAGACTAAAATTTTT | 0.489

Sample 4 — method: RNA Bind-n-Seq; form: RNA; sample: in vitro; concentration: 1 µM; notes: whole 134-nt RNA, ends assumed; together with: 150 mM KCl; reference: input library; reading: higher = stronger binding
Target: Ras GTPase-activating protein-binding protein 1, RRM domain (G3BP1, Homo sapiens, UniProt Q13283)
UniProt Q13283, sequence (whole entry, looked up): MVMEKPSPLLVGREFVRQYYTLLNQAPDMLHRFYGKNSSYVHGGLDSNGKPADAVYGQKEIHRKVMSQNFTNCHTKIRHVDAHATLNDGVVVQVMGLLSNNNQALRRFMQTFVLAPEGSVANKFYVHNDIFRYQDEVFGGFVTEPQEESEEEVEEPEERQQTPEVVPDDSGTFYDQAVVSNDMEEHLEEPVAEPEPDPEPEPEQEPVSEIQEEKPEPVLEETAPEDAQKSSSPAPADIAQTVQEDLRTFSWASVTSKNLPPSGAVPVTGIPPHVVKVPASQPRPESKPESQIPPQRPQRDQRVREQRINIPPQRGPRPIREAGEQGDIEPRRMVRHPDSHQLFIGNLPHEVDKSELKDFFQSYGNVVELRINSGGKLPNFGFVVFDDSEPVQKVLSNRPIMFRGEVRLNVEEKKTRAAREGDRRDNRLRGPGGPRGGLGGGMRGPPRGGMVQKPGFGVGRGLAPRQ
All sequences stand within: GGGAGUUCUACAGUCCGACGAUC … UGGAAUUCUCGGGUGUCAAGG
Strand | log2 enrichment
AAGUCCUGUGCUACACAUCGUAUGUACCGAAUCGGUUUUGGGGUUUUGGGUUUUGGGAAAGUAUUAUGUUACGCCGUUCGGAUCUGCACU | -0.012
CUGUGCUACACAUCGUAUGUACCGAAUCGGGGCCCCCCCGGCCCCCCCGGCCCCCCCGGGGAAAGUAUUAUGUUACGCCGUUCGGAUCUG | -0.724
GUCCUGUGCUACACAUCGUAUGUACCGAAUCGGGGAAAGGGGUUUUUGGGGAAAGGGGAAAGUAUUAUGUUACGCCGUUCGGAUCUGCAC | 1.39
CCUGUGCUACACAUCGUAUGUACCGAAUCGGGAAAAAAAGGGAAAAAAAGGGAAAAAAAGGAAAGUAUUAUGUUACGCCGUUCGGAUCUG | 0.0577
CUCAAGUCCUGUGCUACACAUCGUAUGUACCGAAUCGGAAAAAGGAAAGGAGGAAAGUAUUAUGUUACGCCGUUCGGAUCUGCACUUCCA | -0.301
CCUGUGCUACACAUCGUAUGUACCGAAUCGGGUUUUUUGGGUUUUUUGGGGUUUUUUGGGAAAGUAUUAUGUUACGCCGUUCGGAUCUGC | -0.18
UUUGGAGAAGGAACCCCACUCUCCAGCUGACCAGCCUGAACAACAGGCAGAAUCCACUUUGACAUCAGCUGAGACUAGGGGAAGCAAGAA | -0.177
UCAUCCUUUUUAAAUUUUUUUUUUUUUUUUGAGACGGUCUCACUCUCACCCAGGCUGGAUUGCAGUGGUGUGAUCUCGACCAACUGCAAC | -2.15
CCUGUGCUACACAUCGUAUGUACCGAAUCGGGUUUUUUUGGGUUUUUGGGUUUUUUUGGGAAAGUAUUAUGUUACGCCGUUCGGAUCUGC | -0.206
GCAGGAAGUAAAAACAAAUGGAAAUGCUUCGUAUAGUGGCAGGGGUGGGGGUUGCUAAGGAAAGGGUGGGAUGGGAGUGGGUAAAGAGUU | 1.14
CCUCAAGUCCUGUGCUACACAUCGUAUGUACCGAAUCGGAAAAAGGAGGUGGAAAGUAUUAUGUUACGCCGUUCGGAUCUGCACUUCCAG | -0.0844
CCUCAAGUCCUGUGCUACACAUCGUAUGUACCGAAUCGGGGAGGAGGGGAGGGAAAGUAUUAUGUUACGCCGUUCGGAUCUGCACUUCCA | 0.148
CUCAAGUCCUGUGCUACACAUCGUAUGUACCGAAUCGGAAAAAGGAGGUUUGGAAAGUAUUAUGUUACGCCGUUCGGAUCUGCACUUCCA | -0.116
UCCUGUGCUACACAUCGUAUGUACCGAAUCGGAAAAAAAGGAAAAAAAGGAAAAAAAGGGAAAGUAUUAUGUUACGCCGUUCGGAUCUGC | 0.0781
